Measured values from different studies.
± gives the spread as reported.
Technique: steady-state kinetics
B1: UGT1A9 (Homo sapiens, UniProt O60656); chain GKLLVVPMDGSHWFTMRSVVEKLILRGHEVVVVMPEVSWQLGRSLNCTVKTYSTSYTLEDLDREFKAFAHAQWKAQVRSIYSLLMGSYNDIFDLFFSNCRSLFKDKKLVEYLKESSFDAVFLDPFDNCGLIVAKYFSLPSVVFARGILCHYLEEGAQCPAPLSYVPRILLGFSDAMTFKERVRNHIMHLEEHLLCHRFFKNALEIASEILQTPVTEYDLYSHTSIWLLRTDFVLDYPKPVMPNMIFIGGINCHQGKPLPMEFEAYINASGEHGIVVFSLGSMVSEIPEKKAMAIADALGKIPQTVLWRYTGTRPSNLANNTILVKWLPQNDLLGHPMTRAFITHAGSHGVYESICNGVPMVMMPLFGDQMDNAKRMETKGAGVTLNVLEMTSEDLENALKAVINDKSYKENIMRLSSLHKDRPVEPLDLAVFWVEFVMRHKGAPHLRPAAHDLTWYQYHSLDVIGFLLAVVLTVAFITFKCCAYGYRKCLGKKGRVKKAHKSKTH
B2: UCK2 H117Y (Homo sapiens, UniProt Q9BZX2); chain MAGDSEQTLQNHQQPNGGEPFLIGVSGGTASGKSSVCAKIVQLLGQNEVDYRQKQVVILSQDSFYRVLTSEQKAKALKGQFNFDHPDAFDNELILKTLKEITEGKTVQIPVYDFVSYSRKEETVTVYPADVVLFEGILAFYSQEVRDLFQMKLFVDTDADTRLSRRVLRDISERGRDLEQILSQYITFVKPAFEEFCLPTKKYADVIIPRGADNLVAINLIVQHIQDILNGGPSKRQTNGCLNGYTPSRKRQASESSSRPH
B3: IYD (Homo sapiens, UniProt Q6PHW0); chain MGEPRTRAEARPWVDEDLKDSSDLHQAEEDADEWQESEENVEHIPFSHNHYPEKEMVKRSQEFYELLNKRRSVRFISNEQVPMEVIDNVIRTAGTAPSGAHTEPWTFVVVKDPDVKHKIRKIIEEEEEINYMKRMGHRWVTDLKKLRTNWIKEYLDTAPILILIFKQVHGFAANGKKKVHYYNEISVSIACGILLAALQNAGLVTVTTTPLNCGPRLRVLLGRPAHEKLLMLLPVGYPSKEATVPDLKRKPLDQIMVTV
B4: alanine racemase H127A/H166A/H200A (Geobacillus stearothermophilus, UniProt P10724); chain MNDFHRDTWAEVDLDAIYDNVENLRRLLPDDTHIMAVVKANAYGHGDVQVARTALEAGASRLAVAFLDEALALREKGIEAPILVLGASRPADAALAAQQRIALTVFRSDWLEEASALYSGPFPIHFALKMDTGMGRLGVKDEEETKRIVALIERHPHFVLEGLYTAFATADEVNTDYFSYQYTRFLHMLEWLPSRPPLVACANSAASLRFPDRTFNMVRFGIAMYGLAPSPGIKPLLPYPLKEAFSLHSRLVHVKKLQPGEKVSYGATYTAQTEEWIGTIPIGYADGWLRRLQHFHVLVDGQKAPIVGRICMDQCMIRLPGPLPVGTKVTLIGRQGDEVISIDDVARHLETINYEVPCTISYRVPRIFFRHKRIMEVRNAIGRGESSA
B5: engA (Bacillus subtilis, UniProt P50743); chain MGKPVVAIVGRPNVGKSTIFNRIAGERISIVEDTPGVTRDRIYSSAEWLNYDFNLIDTGGIDIGDEPFLAQIRQQAEIAMDEADVIIFMVNGREGVTAADEEVAKILYRTKKPVVLAVNKLDNTEMRANIYDFYSLGFGEPYPISGTHGLGLGDLLDAVAEHFKNIPETKYNEEVIQFCLIGRPNVGKSSLVNAMLGEERVIVSNVAGTTRDAVDTSFTYNQQEFVIVDTAGMRKKGKVYETTEKYSVLRALKAIDRSEVVAVVLDGEEGIIEQDKRIAGYAHEAGKAVVIVVNKWDAVDKDESTMKEFEENIRDHFQFLDYAPILFMSALTKKRIHTLMPAIIKASENHSLRVQTNVLNDVIMDAVAMNPTPTHNGSRLKIYYATQVSVKPPSFVVFVNDPELMHFSYERFLENRIRDAFGFEGTPIKIFARARK
B6: Msh2/Msh3 (Saccharomyces cerevisiae); chain 1 MSSTRPELKFSDVSEERNFYKKYTGLPKKPLKTIRLVDKGDYYTVIGSDAIFVADSVYHTQSVLKNCQLDPVTAKNFHEPTKYVTVSLQVLATLLKLCLLDLGYKVEIYDKGWKLIKSASPGNIEQVNELMNMNIDSSIIIASLKVQWNSQDGNCIIGVAFIDTTAYKVGMLDIVDNEVYSNLESFLIQLGVKECLVQDLTSNSNSNAEMQKVINVIDRCGCVVTLLKNSEFSEKDVELDLTKLLGDDLALSLPQKYSKLSMGACNALIGYLQLLSEQDQVGKYELVEHKLKEFMKLDASAIKALNLFPQGPQNPFGSNNLAVSGFTSAGNSGKVTSLFQLLNHCKTNAGVRLLNEWLKQPLTNIDEINKRHDLVDYLIDQIELRQMLTSEYLPMIPDIRRLTKKLNKRGNLEDVLKIYQFSKRIPEIVQVFTSFLEDDSPTEPVNELVRSVWLAPLSHHVEPLSKFEEMVETTVDLDAYEENNEFMIKVEFNEELGKIRSKLDTLRDEIHSIHLDSAEDLGFDPDKKLKLENHHLHGWCMRLTRNDAKELRKHKKYIELSTVKAGIFFSTKQLKSIANETNILQKEYDKQQSALVREIINITLTYTPVFEKLSLVLAHLDVIASFAHTSSYAPIPYIRPKLHPMDSERRTHLISSRHPVLEMQDDISFISNDVTLESGKGDFLIITGPNMGGKSTYIRQVGVISLMAQIGCFVPCEEAEIAIVDAILCRVGAGDSQLKGVSTFMVEILETASILKNASKNSLIIVDELGRGTSTYDGFGLAWAIAEHIASKIGCFALFATHFHELTELSEKLPNVKNMHVVAHIEKNLKEQKHDDEDITLLYKVEPGISDQSFGIHVAEVVQFPEKIVKMAKRKANELDDLKTNNEDLKKAKLSLQEVNEGNIRLKALLKEWIRKVKEEGLHDPSKITEEASQHKIQELLRAIANEPEKENDNYLKYIKALLL; chain 2 MAGQPTISRFFKKAVKSELTHKQEQEVAVGNGAGSESICLDTDEEDNLSSVASTTVTNDSFPLKGSVSSKNSKNSEKTSGTSTTFNDIDFAKKLDRIMKRRSDENVEAEDDEEEGEEDFVKKKARKSPTAKLTPLDKQVKDLKMHHRDKVLVIRVGYKYKCFAEDAVTVSRILHIKLVPGKLTIDESNPQDCNHRQFAYCSFPDVRLNVHLERLVHHNLKVAVVEQAETSAIKKHDPGASKSSVFERKISNVFTKATFGVNSTFVLRGKRILGDTNSIWALSRDVHQGKVAKYSLISVNLNNGEVVYDEFEEPNLADEKLQIRIKYLQPIEVLVNTDDLPLHVAKFFKDISCPLIHKQEYDLEDHVVQAIKVMNEKIQLSPSLIRLVSKLYSHMVEYNNEQVMLIPSIYSPFASKIHMLLDPNSLQSLDIFTHDGGKGSLFWLLDHTRTSFGLRMLREWILKPLVDVHQIEERLDAIECITSEINNSIFFESLNQMLNHTPDLLRTLNRIMYGTTSRKEVYFYLKQITSFVDHFKMHQSYLSEHFKSSDGRIGKQSPLLFRLFSELNELLSTTQLPHFLTMINVSAVMEKNSDKQVMDFFNLNNYDCSEGIIKIQRESESVRSQLKEELAEIRKYLKRPYLNFRDEVDYLIEVKNSQIKDLPDDWIKVNNTKMVSRFTTPRTQKLTQKLEYYKDLLIRESELQYKEFLNKITAEYTELRKITLNLAQYDCILSLAATSCNVNYVRPTFVNGQQAIIAKNARNPIIESLDVHYVPNDIMMSPENGKINIITGPNMGGKSSYIRQVALLTIMAQIGSFVPAEEIRLSIFENVLTRIGAHDDIINGDSTFKVEMLDILHILKNCNKRSLLLLDEVGRGTGTHDGIAISYALIKYFSELSDCPLILFTTHFPMLGEIKSPLIRNYHMDYVEEQKTGEDWMSVIFLYKLKKGLTYNSYGMNVAKLARLDKDIINRAFSISEELRKESINEDALKLFSSLKRILKSDNITATDKLAKLLSLDIH
B7: CstB (Staphylococcus aureus, UniProt G5ELA4); chain MFFKQFYDNHLSQASYLVGCQRTGEAIIIDPVRDLSKYIEVADSEGLTITQATETHIHADFASGIRDVAKRLNANIYVSGEGEDALGYKNMPSKTQFVKHGDIIQVGNVKLEVLHTPGHTPESISFLLTDLGGGSSVPMGLFSGDFIFVGDIGRPDLLEKSVQIKGSTEISAKQMYESVQNIKNLPDYVQIWPGHGAGSPCGKALGAIPISTIGYEKINNWAFNEIDETKFIESLTSNQPAPPHHFAQMKQVNQFGMNLYQSYDVYPSLDNKRVAFDLRSKEAFHGGHTKGTINIPYNKNFINQIGWYLDFEKDIDLIGDKSTVEKAKHTLQLIGFDKVAGYRLPKSGISTQSVHSADMTGKEEHVLDVRNDEEWNNGHLDQAVNIPHGKLLNENIPFNKEDKIYVHCQSGVRSSIAVGILESKGFENVVNIREGYQDFPESLK
B8: enzyme (Brachypodium distachyon, UniProt I1IPY7); chain MEQGKAALGWAARDASGHLSPYNFSRRVQKDDDVTIKVLFCGICHTDLHIIKNEWGNALYPIVPGHEVVGVVTDVGPGVKNFKAGETVGVGYFLDSCRTCDSCSKGHENYCPTLVLTSNGVDYDGATTQGGFSDVVVVNQDYVVRVPDTLPPDGAAPLLCAGVTVYSPMMQYGLNAPGKHLGVVGLGGLGHMAVKFGKAFGMKVTVISSSLRKREEALDRLGADDFLVSSDAEQMKAAAGAMDGIIDTVSAGHPIVPLLELLRPMGQMVVCGAPSEPLQLPAYAVITGGKRIAGNGVGSVRDCQAMLDFAGEHGITADVEVVKMDYVNTAVERLERNDVRYRFVIDVAGSLQQGGAA
Sequence of UniProt P07914 (whole entry, looked up): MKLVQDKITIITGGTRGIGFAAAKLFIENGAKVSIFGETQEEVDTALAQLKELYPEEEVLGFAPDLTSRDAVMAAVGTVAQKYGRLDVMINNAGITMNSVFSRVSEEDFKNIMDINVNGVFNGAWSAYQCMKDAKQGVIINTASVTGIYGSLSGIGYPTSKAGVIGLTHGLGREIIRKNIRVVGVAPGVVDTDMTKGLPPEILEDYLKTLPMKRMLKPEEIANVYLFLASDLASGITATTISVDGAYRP

For `B1 (UGT1A9)`, the Km was 0.21 µM (COc1ccccc1-c1oc2ccccc2c(=O)c1O; pH 7.4, 37 °C).
`B2 (UCK2 H117Y)` gave a kcat/Km of 47000 M⁻¹ s⁻¹ (Nc1ccn([C@@H]2O[C@H](CO)[C@@H](O)[C@H]2O)c(=O)n1; pH 7.2, 25 °C, KCl 100 mM, together with: ATP 100–200 µM).
`B3 (IYD)` gave a kcat/Km of 15000 ± 2000 M⁻¹ s⁻¹ (Cc1cc(C[C@H](N)C(=O)O)cc(I)c1O; pH 7.4, 25 °C, together with: sodium dithionite 0.5%).
The kcat/Km of `B4` is reported as 360 M⁻¹ s⁻¹ (C[C@@H](N)C(=O)O; pH 9, room temperature, together with: NAD+ 10 mM).
For `enzyme (Triticum aestivum, UniProt A0A6J4BJN3)`, the kcat/Km was 6860 M⁻¹ s⁻¹ (O=C1[C@@H](O[C@@H]2O[C@H](CO)[C@@H](O)[C@H](O)[C@H]2O)Oc2ccccc2N1O; pH 7.2, 30 °C).
`BaiA1 (Clostridium scindens, UniProt P07914)` gave a kcat/Km of 60400 M⁻¹ s⁻¹ (C[C@H](CCC(=O)SCCNC(=O)CCNC(=O)[C@H](O)C(C)(C)COP(=O)(O)OP(=O)(O)OC[C@H]1O[C@@H](n2cnc3c(N)ncnc32)[C@H](O)[C@@H]1OP(=O)(O)O)[C@H]1CC[C@H]2[C@@H]3[C@H](O)C[C@@H]4CC(=O)CC[C@]4(C)[C@H]3C[C@H](O)[C@]12C; pH 8.7, 37 °C, together with: NADH).
The kcat/Km of `B5 (engA)` is reported as 114 M⁻¹ s⁻¹ (Nc1nc2c(ncn2[C@@H]2O[C@H](COP(=O)(O)OP(=O)(O)OP(=O)(O)O)[C@@H](O)[C@H]2O)c(=O)[nH]1; pH 7.5, 37 °C, KCl 200 mM, free enzyme, apparent, together with: GTP 0-1 mM).
`B6 (Msh2/Msh3)` has a kcat/Km of 417 M⁻¹ s⁻¹ (Nc1ncnc2c1ncn2[C@@H]1O[C@H](COP(=O)(O)OP(=O)(O)OP(=O)(O)O)[C@@H](O)[C@H]1O; pH 7.5, 30 °C, no DNA, together with: magnesium acetate 2 mM).
For `B7 (CstB)`, the kcat/Km was 10900 ± 2800 M⁻¹ s⁻¹ (N[C@@H](CSS)C(=O)N[C@H]1[C@@H](O[C@@H](CC(=O)O)C(=O)O)O[C@H](CO)[C@@H](O)[C@@H]1O; pH 6, 25 °C, NaBr 100 mM, air-saturated, together with: Fe(II), O2).
`B8 (enzyme)` has a kcat/Km of 4.96e+06 M⁻¹ s⁻¹ (NC(=O)C1=CN([C@@H]2O[C@H](COP(=O)(O)OP(=O)(O)OC[C@H]3O[C@@H](n4cnc5c(N)ncnc54)[C@H](OP(=O)(O)O)[C@@H]3O)[C@@H](O)[C@H]2O)C=CC1; pH 5.35, 23 °C, cofactor varied).

Some of these lines once more:
For `B7 (CstB)`, the kcat/Km was 10900 ± 2800 M⁻¹ s⁻¹ (N[C@@H](CSS)C(=O)N[C@H]1[C@@H](O[C@@H](CC(=O)O)C(=O)O)O[C@H](CO)[C@@H](O)[C@@H]1O; pH 6, 25 °C, NaBr 100 mM, air-saturated, together with: Fe(II), O2).
`B8 (enzyme)` has a kcat/Km of 4.96e+06 M⁻¹ s⁻¹ (NC(=O)C1=CN([C@@H]2O[C@H](COP(=O)(O)OP(=O)(O)OC[C@H]3O[C@@H](n4cnc5c(N)ncnc54)[C@H](OP(=O)(O)O)[C@@H]3O)[C@@H](O)[C@H]2O)C=CC1; pH 5.35, 23 °C, cofactor varied).
